Measurements pooled from the literature.
Compare with care: the assays were run in different laboratories. ± gives the spread as reported.

| Structure (SMILES) | test | test system | setting | scale | measurement | value |
| --- | --- | --- | --- | --- | --- | --- |
| CC(C)C[C@H](NC(=O)[C@H](CCCCN)NC(=O)[C@H](CCC(=O)O)NC(=O)[C@H](C)NC(=O)[C@@H](NC(=O)[C@H](CCCCN)NC(=O)[C@H](CC(=O)O)NC(=O)[C@H](Cc1ccc(O)cc1)NC(=O)[C@H](Cc1ccccc1)NC(=O)[C@H](C)NC(=O)[C@H](CCCCN)NC(=O)[C@H](CC(C)C)NC(=O)[C@H](Cc1c[nH]c2ccccc12)NC(=O)[C@@H](N)CC(=O)O)C(C)C)C(=O)N[C@@H](CCCCN)C(=O)N[C@@H](CCC(=O)O)C(=O)N[C@@H](C)C(=O)N[C@@H](Cc1ccccc1)C(=O)N1CCC[C@H]1C(=O)N[C@@H](CC(=O)O)C(=O)N[C@@H](Cc1c[nH]c2ccccc12)C(=O)N[C@@H](C)C(=O)N[C@@H](CCCCN)C(=O)N[C@@H](C)C(=O)N[C@@H](C)C(=O)N[C@@H](Cc1ccc(O)cc1)C(=O)N[C@@H](CC(=O)O)C(=O)N[C@@H](CCCCN)C(=O)N[C@@H](C)C(=O)N[C@@H](C)C(=O)N[C@@H](CCC(=O)O)C(=O)N[C@@H](CCCCN)C(=O)N[C@@H](C)C(=O)N[C@@H](CCCCN)C(=O)N[C@@H](CCC(=O)O)C(=O)N[C@@H](C)C(=O)N[C@@H](C)C(=O)O |  | cynomolgus monkey male, plasma | intravenous infusion, 8 mg/kg, day 1, 30 min infusion |  | AUC(0-inf) | 415 µg·h/mL |
| CC[C@H](C)[C@H](NC(=O)CNC(=O)[C@@H](NC(=O)[C@H](Cc1ccc(O)cc1)NC(=O)[C@@H](NC(=O)[C@H](CO)NC(=O)[C@@H](NC(=O)[C@H](C)NC(=O)[C@@H]1CCCN1C(=O)[C@@H](NC(=O)[C@H](Cc1ccccc1)NC(=O)[C@H](CCCCN)NC(=O)[C@H](CCC(=O)O)NC(=O)[C@H](Cc1ccc(O)cc1)NC(=O)[C@H](CC(C)C)NC(=O)[C@H](CC(=O)O)NC(=O)[C@H](CCCNC(=N)N)NC(=O)[C@H](CC(C)C)NC(=O)[C@H](CCCCN)NC(=O)[C@H](CCC(=O)O)NC(=O)[C@H](Cc1ccccc1)NC(=O)[C@@H](NC(=O)[C@H](CCC(=O)O)NC(=O)[C@H](CCCCN)NC(=O)[C@H](CC(C)C)NC(=O)[C@H](Cc1ccc(O)cc1)NC(=O)[C@@H](N)CC(=O)O)C(C)C)[C@@H](C)O)C(C)C)[C@@H](C)O)[C@@H](C)O)C(=O)N[C@@H](Cc1ccccc1)C(=O)N[C@H](C(=O)N[C@@H](CC(=O)O)C(=O)N[C@@H](CCC(N)=O)C(=O)N[C@H](C(=O)N[C@@H](CC(C)C)C(=O)N[C@@H](CO)C(=O)N[C@H](C(=O)N[C@@H](CC(C)C)C(=O)N[C@@H](CCCCN)C(=O)NCC(=O)N[C@@H](CCC(=O)O)C(=O)N[C@@H](CCC(=O)O)C(=O)O)C(C)C)C(C)C)[C@@H](C)O |  | cynomolgus monkey | intravenous, 8 and 80 mg/kg |  | terminal half-life | 42 to 50 h |
| CC(C)[C@@H]1NC(=O)[C@H](Cc2ccccc2)NC(=O)[C@H](Cc2ccc(O)cc2)NC(=O)CCSSC[C@@H](C(=O)N2CCC[C@H]2C(=O)N[C@H](CCCNC(=N)N)C(=O)NCC(N)=O)NC(=O)[C@H](CCC(N)=O)NC1=O |  | Wistar rat, blood | intravenous, 10 µg/kg single dose, 72 h |  | ALT | 19.6 ± 3.1 IU/L |
| O.[C-]#[O+].[C-]#[O+].[C-]#[O+].[Re+].c1cnc2c(c1)ccc1cccnc12 | RP-HPLC C18 column, item: MeCN adduct | MeCN:water 40:60, 0.1% TFA | isocratic elution |  | capacity factor | 4.6 |
| C/C=C/C=C/C/C=C/CCCCCCCc1cccc(O)c1O |  | female Kunming mice tumour-bearing, lungs | intravenous, 10 mg/kg, 1 h |  | tissue concentration | 12400 ± 1850 ng/g |
| CC(C)C[C@@H]1NC(=O)[C@@H](Cc2ccccc2)NC(=O)[C@H](CCN)NC(=O)[C@@H](NC(=O)[C@H](CN)NC(=O)[C@@H](NC(=O)CC(CN)Cc2ccccc2)[C@@H](C)O)CCNC(=O)[C@H]([C@@H](C)O)NC(=O)[C@H](CCN)NC(=O)[C@H](CCN)NC1=O (stereo partly drawn) | LC-MS/MS | CD-1 mouse, kidney homogenate | subcutaneous, 17.2 mg/kg single dose, 4 to 16 h |  | kidney AUC(4-16 h) | 847 µg·h/g |
| COc1cc2c3c(c4cc(OC)c(OC)c(OC)c4c2cc1OC)CC1CCCCN1C3 (stereo not drawn) |  | swine cells | 24 (unit not given) |  | CC50 | 48.3 ± 3.07 µM |
| Nc1ccn(CC2COP(=O)(OCCCCCCCCCCCCNC(=O)CCCCC3SCC4NC(=O)NC43)CO2)c(=O)n1 (mixture of isomers) |  | rabbit, retina-choroid |  | reference: parent CDF | partition coefficient | 9.8 fold |
| O=C(N=P12CN3CN(CN(C3)C1)C2)c1ccccn1.[Cl][Pt][Cl] | NMR | DMSO:water 50:50 |  |  | stability time | > 4 days |
| CN(C)C(CNC(=O)Nc1cc(C(F)(F)F)ccc1N1CCOCC1)c1ccncc1 (stereo not drawn) |  | mouse, serum | intraperitoneal, 120 mg/kg single dose |  | serum magnesium | 2.6 mg/dL |
| COc1cc(NC(=O)C(=O)c2c(C)n(Cc3ccc(Cl)cc3)c3ccc(C)cc23)ccn1 |  | female cynomolgus monkey, plasma | intravenous, 1 mg/kg |  | AUC | 1670 ng·h/mL |
| O=C(c1ccc(F)cc1)C1CCN(C2Cc3c(cccc3OCC[18F])CC2O)CC1 (single isomer, unassigned; (-)) |  | rat, brain | 2 h |  | tracer uptake | 0.56 %ID/g |
| Cc1c(CN(C)C(=O)/C=C/c2cnc3c(c2)CC(N)C(=O)N3)oc2ccccc12 (stereo not drawn) |  | C57BL/6 mice female | intraperitoneal, 50 mg/kg daily, 5 days |  | tolerated dose | 50 mg/kg |
| CC(C)[C@H](NC(=O)CNC(=O)[C@H](CCC(N)=O)NC(=O)[C@H](C)N)C(=O)O |  | healthy male volunteers | intravenous, 15 mg/kg/h, 2 h, with: LPS 2 ng/kg |  | subjects given concomitant medication | 0% |
| CC[C@H](C)C(=O)N1CCC(NC(=O)Nc2ccc(OC(F)(F)F)c(F)c2)CC1 |  | healthy volunteers | oral, 8 mg single dose |  | subjects with headache TEAE | 0% |
| O=C(O)CCC(NP(=O)(O)OCCC[C@@H](NC(=O)CCC(NC(=O)CCCCCNC(=O)c1ccc([18F])cc1)C(=O)O)C(=O)O)C(=O)O (stereo partly drawn) | radioactivity biodistribution | mouse, PC-3 xenograft, tumour, blood | 2 h |  | tumour/blood ratio | 9.15 ± 3.76 |
| CCCCCCCCCCCCC(=O)O.O=C1CCCC2C3CCCN4CCCC(CN12)C34 (stereo not drawn) | conductometry | water | 298.15 K |  | limiting molar conductivity | 42.52 ± 0.09 S cm²/mol |
| CCCCCCCCCn1cc(C(N)(CO)CO)nn1 |  | APP/PS1 mouse | oral, up to 10 mg/kg |  | survival | no effect |
| CCC(CC)OC1C=C(C(=O)OC(C)OC(=O)C(N)C(C)C)CC(NC(=N)N)C1NC(C)=O (mixture of isomers) |  | mouse (fed), plasma | oral, 10 mg/kg |  | Cmax | 405 ± 297 ng/mL |
| CC(C)[C@H](NC(=O)CNC(=O)[C@H](CCC(N)=O)NC(=O)[C@H](C)N)C(=O)O |  | human | 30 mg/kg thrice daily, 3 days |  | unlikely related or unrelated adverse events | 71.4% |
| CC[C@H](C)[C@H](N)C(=O)N[C@@H](CC(N)=O)C(=O)N[C@@H](Cc1c[nH]cn1)C(=O)N[C@H](C(=O)NCC(=O)NCC(=O)N[C@H](C(=O)NCC(=O)NCC(=O)N[C@@H](C)C(=O)N[C@H](C(=O)N[C@@H](CCSC)C(=O)N[C@@H](C)C(=O)N1CCC[C@H]1C(=O)N[C@H](C(=O)N[C@@H](C)C(=O)N[C@H](C(=O)N[C@H](C(=O)N[C@@H](CCCNC(=N)N)C(=O)N[C@@H](CCC(N)=O)C(=O)N[C@@H](CC(C)C)C(=O)N[C@H](C(=O)NCC(=O)NCC(=O)N[C@@H](CS)C(=O)NCC(=O)NCC(=O)NCC(=O)N[C@@H](CCCCN)C(=O)N[C@@H](CCC(=O)O)C(=O)N[C@H](C(=O)N[C@@H](C)C(=O)N[C@@H](C)C(=O)N[C@@H](C)C(=O)N[C@@H](CCCCN)C(=O)N[C@@H](Cc1ccccc1)C(=O)N[C@@H](CCC(=O)O)C(=O)N[C@@H](CCCNC(=N)N)C(=O)N[C@@H](CCC(N)=O)C(=O)N[C@@H](Cc1c[nH]cn1)C(=O)N[C@@H](CCSC)C(=O)N[C@@H](CC(=O)O)C(=O)N[C@@H](CO)C(=O)O)[C@@H](C)O)C(C)C)[C@@H](C)O)C(C)C)C(C)C)[C@@H](C)CC)[C@@H](C)O)C(C)C | transmission electron microscopy | phosphate buffer | 25 µM, pH 7.4 |  | particle size | 70 to 150 nm |

Some of these lines once more:
| Structure (SMILES) | test | test system | setting | scale | measurement | value |
| --- | --- | --- | --- | --- | --- | --- |
| Cc1c(CN(C)C(=O)/C=C/c2cnc3c(c2)CC(N)C(=O)N3)oc2ccccc12 (stereo not drawn) |  | C57BL/6 mice female | intraperitoneal, 50 mg/kg daily, 5 days |  | tolerated dose | 50 mg/kg |
| CC(C)[C@H](NC(=O)CNC(=O)[C@H](CCC(N)=O)NC(=O)[C@H](C)N)C(=O)O |  | healthy male volunteers | intravenous, 15 mg/kg/h, 2 h, with: LPS 2 ng/kg |  | subjects given concomitant medication | 0% |
| CC[C@H](C)C(=O)N1CCC(NC(=O)Nc2ccc(OC(F)(F)F)c(F)c2)CC1 |  | healthy volunteers | oral, 8 mg single dose |  | subjects with headache TEAE | 0% |
